Measured values gathered from unrelated publications.
Numbered parts are unrelated; each lists some results of a single study.
UniProt P31751, sequence (whole entry, looked up): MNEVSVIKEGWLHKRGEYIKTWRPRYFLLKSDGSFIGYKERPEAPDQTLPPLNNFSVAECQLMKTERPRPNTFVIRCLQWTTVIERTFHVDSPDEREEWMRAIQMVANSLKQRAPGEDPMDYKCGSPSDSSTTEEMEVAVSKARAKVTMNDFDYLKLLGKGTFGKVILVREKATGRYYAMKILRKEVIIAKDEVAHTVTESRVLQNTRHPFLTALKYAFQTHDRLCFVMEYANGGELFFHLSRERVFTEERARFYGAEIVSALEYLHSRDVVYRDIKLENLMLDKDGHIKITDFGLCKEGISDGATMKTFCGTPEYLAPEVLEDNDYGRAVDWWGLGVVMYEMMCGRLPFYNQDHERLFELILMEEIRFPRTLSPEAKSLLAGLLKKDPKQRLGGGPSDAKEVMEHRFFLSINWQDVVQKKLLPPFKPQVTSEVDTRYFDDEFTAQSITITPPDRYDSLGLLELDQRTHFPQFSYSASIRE
UniProt Q9UKI8, sequence (whole entry, looked up): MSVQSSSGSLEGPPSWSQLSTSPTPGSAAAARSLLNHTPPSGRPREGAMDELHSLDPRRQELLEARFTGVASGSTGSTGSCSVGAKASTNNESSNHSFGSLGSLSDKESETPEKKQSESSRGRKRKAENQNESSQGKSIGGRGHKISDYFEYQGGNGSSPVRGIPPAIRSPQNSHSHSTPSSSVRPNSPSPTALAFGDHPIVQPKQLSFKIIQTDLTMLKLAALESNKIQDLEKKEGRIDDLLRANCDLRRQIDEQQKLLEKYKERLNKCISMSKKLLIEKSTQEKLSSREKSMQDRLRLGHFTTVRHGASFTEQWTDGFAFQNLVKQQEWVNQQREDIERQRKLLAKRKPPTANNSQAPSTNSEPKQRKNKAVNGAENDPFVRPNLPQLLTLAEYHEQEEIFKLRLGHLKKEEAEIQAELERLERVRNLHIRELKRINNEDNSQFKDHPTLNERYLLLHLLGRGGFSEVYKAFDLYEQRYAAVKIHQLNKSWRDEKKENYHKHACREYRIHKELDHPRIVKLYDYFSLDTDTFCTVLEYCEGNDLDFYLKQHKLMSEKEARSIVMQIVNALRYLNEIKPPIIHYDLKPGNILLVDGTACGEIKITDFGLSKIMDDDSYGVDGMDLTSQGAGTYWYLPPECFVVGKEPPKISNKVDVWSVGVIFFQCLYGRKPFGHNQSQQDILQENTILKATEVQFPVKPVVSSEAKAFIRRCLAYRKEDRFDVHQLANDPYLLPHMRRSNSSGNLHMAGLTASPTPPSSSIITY
UniProt Q96J92, sequence (whole entry, looked up): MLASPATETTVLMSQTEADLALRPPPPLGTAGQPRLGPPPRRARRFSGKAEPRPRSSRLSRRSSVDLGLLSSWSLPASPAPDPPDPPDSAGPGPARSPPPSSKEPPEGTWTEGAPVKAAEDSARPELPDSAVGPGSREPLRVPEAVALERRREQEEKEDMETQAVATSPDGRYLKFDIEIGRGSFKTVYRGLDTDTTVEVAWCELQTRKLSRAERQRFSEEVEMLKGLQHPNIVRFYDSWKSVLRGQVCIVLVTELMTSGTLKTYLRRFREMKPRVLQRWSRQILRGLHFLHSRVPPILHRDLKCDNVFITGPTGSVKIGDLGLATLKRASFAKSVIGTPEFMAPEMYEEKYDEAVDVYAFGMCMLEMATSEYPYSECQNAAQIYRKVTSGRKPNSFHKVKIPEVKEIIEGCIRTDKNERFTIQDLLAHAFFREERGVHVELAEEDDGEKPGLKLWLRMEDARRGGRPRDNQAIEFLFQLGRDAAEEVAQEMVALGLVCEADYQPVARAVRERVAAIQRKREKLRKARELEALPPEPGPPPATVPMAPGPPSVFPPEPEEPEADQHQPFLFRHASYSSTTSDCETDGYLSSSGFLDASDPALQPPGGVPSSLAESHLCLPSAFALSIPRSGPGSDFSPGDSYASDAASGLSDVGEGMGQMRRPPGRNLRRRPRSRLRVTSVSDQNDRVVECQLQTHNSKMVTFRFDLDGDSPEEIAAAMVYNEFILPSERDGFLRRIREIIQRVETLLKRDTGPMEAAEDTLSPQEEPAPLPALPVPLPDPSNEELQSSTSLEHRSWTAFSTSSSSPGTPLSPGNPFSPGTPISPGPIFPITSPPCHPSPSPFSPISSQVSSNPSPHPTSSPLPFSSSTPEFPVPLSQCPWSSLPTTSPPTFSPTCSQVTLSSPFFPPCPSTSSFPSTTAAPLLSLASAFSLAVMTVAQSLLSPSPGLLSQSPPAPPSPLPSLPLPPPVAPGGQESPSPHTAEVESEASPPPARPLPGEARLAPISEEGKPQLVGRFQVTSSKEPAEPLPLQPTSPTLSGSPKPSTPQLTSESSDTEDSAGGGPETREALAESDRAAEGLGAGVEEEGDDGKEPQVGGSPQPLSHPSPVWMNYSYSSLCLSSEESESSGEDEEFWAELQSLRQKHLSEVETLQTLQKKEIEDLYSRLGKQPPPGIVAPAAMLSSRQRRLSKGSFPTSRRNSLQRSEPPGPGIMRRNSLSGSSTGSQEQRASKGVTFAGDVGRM
UniProt Q8IY84, sequence (whole entry, looked up): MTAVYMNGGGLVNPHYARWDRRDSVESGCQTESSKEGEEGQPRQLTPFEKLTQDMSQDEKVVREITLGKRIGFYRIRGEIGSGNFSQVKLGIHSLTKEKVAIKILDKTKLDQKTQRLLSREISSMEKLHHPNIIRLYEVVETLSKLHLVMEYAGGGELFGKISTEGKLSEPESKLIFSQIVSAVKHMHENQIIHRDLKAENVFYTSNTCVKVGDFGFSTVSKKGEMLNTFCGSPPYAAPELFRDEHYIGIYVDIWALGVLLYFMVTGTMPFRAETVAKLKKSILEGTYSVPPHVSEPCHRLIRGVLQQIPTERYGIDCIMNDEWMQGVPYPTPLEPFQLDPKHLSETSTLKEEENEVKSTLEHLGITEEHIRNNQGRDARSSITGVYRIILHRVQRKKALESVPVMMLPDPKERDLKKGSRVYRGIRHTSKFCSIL

Sample 1 — cell line: L929; read-out: necroptosis protection; method: CCK-8; together with: TNF-α plus zVAD
Compound: CC[C@H](C)c1nc2cc(Nc3ccnc4ccc(S(=O)(=O)C(C)C)cc34)ccc2s1
concentration | viability
0.156 µM | 27.3%
0.078 µM | 27.1%
0.313 µM | 27.6%

Sample 2 — read-out: enzyme activity; action: inhibitor; method: radiometric; concentration: 0.5 µM
Target: Dual specificity tyrosine-phosphorylation-regulated kinase 1B (DYRK1B, Homo sapiens, UniProt Q9Y463)
SMILES | remaining activity [%]
COc1cc2ncnc(Nc3ccc(Oc4ccccc4)cc3)c2cc1OC | 97
CN(C)c1ccc(C=C2C(=O)Nc3ccccc32)cc1 | 106
Cc1cccc(-c2[nH]c(C(C)(C)C)nc2-c2ccc3c(c2)OCO3)n1 | 99.6
COc1ccc(CNC(=O)Nc2ncc([N+](=O)[O-])s2)cc1 | 99.4
NCCNc1ncc(C(N)=O)c(Nc2cccc(C(F)(F)F)c2)n1 | 85.9
Nc1ncnc2n[nH]c(Nc3ccc(F)cc3)c12 | 99.2
O=C1NC(=O)C(c2cn(CCCO)c3ncccc23)=C1c1cnccn1 | 93.2

Sample 3 — read-out: cell-free assay; method: competition with immobilised ligand; concentration: 1 µM
Structure (SMILES): Cn1cncc1[C@](O)(COc1ccc(C#N)cc1-c1ccc(OC(F)(F)F)cc1)c1ccc(C#N)cc1
target | remaining binding [%]
RAC-beta serine/threonine-protein kinase (AKT2, Homo sapiens, UniProt P31751) | 81
Receptor-type tyrosine-protein kinase FLT3 (FLT3, Homo sapiens, UniProt P36888, D835V) | 100
Receptor-type tyrosine-protein kinase FLT3 (FLT3, Homo sapiens, UniProt P36888) | 87
Serine/threonine-protein kinase WNK4 (WNK4, Homo sapiens, UniProt Q96J92) | 100
Serine/threonine-protein kinase tousled-like 1 (TLK1, Homo sapiens, UniProt Q9UKI8) | 100
Serine/threonine-protein kinase NIM1 (NIM1K, Homo sapiens, UniProt Q8IY84) | 87
Tyrosine-protein kinase ABL1, non-phosphorylated (ABL1, Homo sapiens, UniProt P00519, Q252H) | 96

Sample 4 — read-out: peptide-MHC binding; molecule type: peptide; concentration: concentration not given
Target: HLA class I histocompatibility antigen, C alpha chain, allele C*04:01 (Homo sapiens, UniProt P10321)
Molecule | binding
RMYWGVNPK | inactive
RYEFTAPFI | inactive
MYMALIAAF | inactive
VTDEGTSSF | inactive
RQRAVRMVL | inactive
LLPRRGPRL | inactive
FPASHMATY | inactive
RLPAYAPLL | inactive

A few entries again (sample 2):
SMILES | remaining activity [%]
NCCNc1ncc(C(N)=O)c(Nc2cccc(C(F)(F)F)c2)n1 | 85.9
